{"data": "Assay results from different studies", "note": "Lines come from different studies, so protocols differ."}
{"SMILES": "CC(C)C[C@H](NC(=O)[C@@H]1CSSC[C@@H]2NC(=O)[C@H](CC(C)C)NC(=O)[C@H](CCC(=O)O)NC(=O)[C@@H](NC(=O)[C@H](CC(=O)O)NC(=O)[C@H](CC(=O)O)NC(=O)[C@@H](N)CC(N)=O)CSSC[C@H](NC(=O)[C@H](C)NC(=O)[C@H](C(C)C)NC(=O)[C@H](CC(N)=O)NC(=O)[C@H](C(C)C)NC2=O)C(=O)N[C@@H]([C@@H](C)O)C(=O)NCC(=O)N1)C(=O)O", "assay": "GC-C stimulating activity, T84 cell bioassay", "test system": "anesthetized rat, urine", "setting": "intravenous infusion, dose not given", "how to read": "relative to: start of infusion", "measurement": "time to appearance in urine", "value": "≤ 20 min"}
{"SMILES": "OC1CCN(c2ncc(-c3cc4ccc([18F])cc4[nH]3)cn2)CC1", "assay": "dynamic PET", "test system": "Sprague-Dawley rats, both sexes, whole brain", "setting": "intravenous, dose not given", "measurement": "time to peak radioactivity", "value": "≤ 5 min"}
{"SMILES": "NC(=O)[C@H](Cc1ccccc1)N[11C](=O)OCc1ccccc1", "assay": "dynamic PET", "test system": "Wistar rat, male, brain", "setting": "intravenous, 13.1 MBq", "measurement": "time to maximum uptake", "value": "3 min"}
{"SMILES": "[18F]c1ccc2cc(-c3cnc(N4CCOCC4)nc3)[nH]c2c1", "assay": "dynamic PET", "test system": "Sprague-Dawley rats, both sexes, whole brain", "setting": "intravenous, dose not given", "measurement": "time to peak radioactivity", "value": "≤ 5 min"}
{"SMILES": "COc1cc(-c2cncc(-c3ccc(C4CCN([11CH3])CC4)cc3)c2C)cc(OC)c1OC", "assay": "dynamic PET", "test system": "Sprague-Dawley rats male, whole brain", "setting": "intravenous", "measurement": "time to peak brain SUV", "value": "≤ 1 min"}
{"SMILES": "C[C@]12CC[C@H](OC(=O)NC3CCNCC3)C[C@H]1CC[C@@H]1[C@@H]2CC[C@]2(C)[C@@H](c3ccc(=O)oc3)CC[C@]12O", "test system": "male Sprague-Dawley rats, plasma", "setting": "intravenous, 5 mg/kg", "measurement": "time quantifiable in plasma", "value": "~12 h"}
{"SMILES": "COc1cc(-c2cncc(-c3ccc(N4CCNCC4)cc3)c2C)cc(OC)c1O[11CH3]", "assay": "dynamic PET", "test system": "Sprague-Dawley rats male, whole brain", "setting": "intravenous", "measurement": "time to peak brain SUV", "value": "≤ 1 min"}
{"SMILES": "C[C@@H]1CC[C@H]2[C@@H](C)CO[C@@H]3O[C@@]4(C)CC[C@@H]1[C@]32OO4", "test system": "Sprague-Dawley rat, male, blood", "setting": "intravenous, 5 mg/kg", "measurement": "time to undetectable level", "value": "2 h"}
{"note": "For quick reference, copied from above:"}
{"SMILES": "[18F]c1ccc2cc(-c3cnc(N4CCOCC4)nc3)[nH]c2c1", "assay": "dynamic PET", "test system": "Sprague-Dawley rats, both sexes, whole brain", "setting": "intravenous, dose not given", "measurement": "time to peak radioactivity", "value": "≤ 5 min"}
